Experimental data of several laboratories.
Numbers after ± are the reported error.

| SMILES | tested on | assay | system | conditions | scale | measurement | value |
| --- | --- | --- | --- | --- | --- | --- | --- |
| CN(C)CCC(=O)Nc1ccc(C2CCCCC2)cc1 |  | hepatocyte stability | cryopreserved human hepatocytes | 1 µM |  | hepatic clearance | 14 mL/min/kg |
| C[C@]1(CO)[C@H]2CC[C@@H]3CN(Cc4cccs4)[C@@H](C4=CCOC4=O)C[C@H]3[C@]2(C)CC[C@H]1O | Human coronavirus 229E | cytopathic effect | MRC5 | 25 µM, corrected for cytotoxicity |  | inhibition | 23.2% |
| CC(=O)c1ccc(C(=O)O)cc1 | Lactobacillus acidophilus | cell survival |  | 100 µM, 24 h | baseline: DMSO | inhibition | 27% |
| Nc1nccc(-c2c(-c3ccc(F)cc3)ncn2C2CCNCC2)n1 | Trypanosoma brucei brucei | parasite growth, inhibitor |  | concentration not given, PKIS high-throughput screen |  | inhibition | 99.8% |
| Cc1cc(OC(C)C)ccc1C(=O)C(C)(C)NC(=O)c1sccc1C | Botrytis cinerea | conidial germination | B05.10 | 100 µg/mL |  | inhibition | 100% |
| C[C@]1(CO)[C@H]2CC[C@@H]3CN(Cc4ccco4)[C@@H](C4=CCOC4=O)C[C@H]3[C@]2(C)CC[C@H]1O | Human coronavirus 229E | cytopathic effect | MRC5 | 25 µM, corrected for cytotoxicity |  | inhibition | -7.6% |
| CN(C)CCOc1ccc(-c2nc(-c3ccncc3)c(-c3ccc4c(c3)CC/C4=N\O)[nH]2)cc1 | Trypanosoma brucei brucei | cell growth |  | concentration not given, PKIS HTS |  | inhibition | 38.5% |
| CC(=O)OC[C@@]1(C)[C@H]2CC[C@@H]3CN(Cc4ccccc4C)[C@@H](C4=CCOC4=O)C[C@H]3[C@]2(C)CC[C@H]1OC(C)=O | Human coronavirus 229E | cytopathic effect | MRC5 | 25 µM, corrected for cytotoxicity |  | inhibition | 76.3% |
| Cn1cc(-c2ccc(-c3cncc(Cl)c3N3CCC4(CCNC4=O)CC3)cc2)cn1 | COLO 205 | gene expression, microarray, refers to: FOSL1 mRNA |  | concentration not given, 2 h | baseline: untreated cells | log2 fold change | 2.51 |
| O=c1[nH]c2ncsc2c(=O)n1O | Digitaria adscendens | glasshouse pot |  | 750 g/ha, 21 days, pre-emergence |  | inhibition | 0% |
| O=C(NCc1cc[nH]n1)c1ccc(C2CCCCC2)cc1 |  | hepatocyte stability | cryopreserved rat hepatocytes | 1 µM |  | hepatic clearance | 52 mL/min/kg |
| COC[C@H]1O[C@@H]2O[C@H]3[C@H](OC)[C@@H](OC)[C@@H](O[C@H]4[C@H](OC)[C@@H](OC)[C@@H](O[C@H]5[C@H](OC)[C@@H](OC)[C@@H](O[C@H]6[C@H](OC)[C@@H](OC)[C@@H](O[C@H]7[C@H](OC)[C@@H](OC)[C@@H](O[C@H]8[C@H](OC)[C@@H](OC)[C@@H](O[C@H]1[C@H](OC)[C@H]2OC)O[C@@H]8COC)O[C@@H]7COC)O[C@@H]6COC)O[C@@H]5COC)O[C@@H]4COC)O[C@@H]3COC | Escherichia coli | LuxR reporter, antagonist | DH5α sensor strain | 200 µM, added: OHHL 200 nM |  | inhibition | 4 ± 4% |
| Cl.c1ccc(-c2nc3n(c2-c2ccc4c(c2)OCO4)CCC3)nc1 | Trypanosoma brucei brucei | cell growth |  | concentration not given, PKIS HTS |  | inhibition | 49.6% |
| CC1(C)OC[C@@]2(C)[C@H]3CC[C@@H]4CN(Cc5ccccc5)[C@@H](C5=CCOC5=O)C[C@H]4[C@]3(C)CC[C@H]2O1 | Human coronavirus 229E | cytopathic effect | MRC5 | 25 µM, corrected for cytotoxicity |  | inhibition | 12.1% |
| CN1CCC(C(=O)Nc2n[nH]c3nnc(-c4ccccc4)cc23)CC1.Cl | Trypanosoma brucei brucei | cell growth |  | concentration not given, PKIS HTS |  | inhibition | 20.3% |
| Cc1nc2[nH]c(=O)n(O)c(=O)c2s1 | Digitaria adscendens | glasshouse pot |  | 1500 g/ha, 21 days, pre-emergence |  | inhibition | 0% |
| CC(=O)OC[C@@]1(C)[C@H]2CC[C@@H]3CN(CC(C)C)[C@@H](C4=CCOC4=O)C[C@H]3[C@]2(C)CC[C@H]1OC(C)=O | Human coronavirus 229E | cytopathic effect | MRC5 | 25 µM, corrected for cytotoxicity |  | inhibition | -5.9% |
| CCc1nc2[nH]c(=O)n(O)c(=O)c2s1 | Digitaria adscendens | glasshouse pot |  | 750 g/ha, 21 days, pre-emergence |  | inhibition | 0% |
| Fc1ccc(-c2nc3n(c2-c2ccncc2)CCS3)cc1 | Trypanosoma brucei brucei | cell growth |  | concentration not given, PKIS HTS |  | inhibition | 7.7% |

For quick reference, copied from above:
| SMILES | tested on | assay | system | conditions | scale | measurement | value |
| --- | --- | --- | --- | --- | --- | --- | --- |
| CN1CCC(C(=O)Nc2n[nH]c3nnc(-c4ccccc4)cc23)CC1.Cl | Trypanosoma brucei brucei | cell growth |  | concentration not given, PKIS HTS |  | inhibition | 20.3% |
| Cc1nc2[nH]c(=O)n(O)c(=O)c2s1 | Digitaria adscendens | glasshouse pot |  | 1500 g/ha, 21 days, pre-emergence |  | inhibition | 0% |
| CC(=O)OC[C@@]1(C)[C@H]2CC[C@@H]3CN(CC(C)C)[C@@H](C4=CCOC4=O)C[C@H]3[C@]2(C)CC[C@H]1OC(C)=O | Human coronavirus 229E | cytopathic effect | MRC5 | 25 µM, corrected for cytotoxicity |  | inhibition | -5.9% |
